Experimental data from different studies.
Every numbered part comes from another study and shows a few of its results, in no order. “And” joins repeats or separate records; there may be more than shown. Substitutions count along the parent as printed.

Series 1 — target: tungstate, free oxyanion; method: microfluidic competitive inhibition; matrix: in vitro, cell-free expressed; tested at: not given; direction: lower = stronger binding
Notes: derived from inhibition constants, unchanged parent 2230 nM
Starting sequence: PafA, mature enzyme, eGFP fusion (Elizabethkingia meningoseptica, UniProt Q9KJX5); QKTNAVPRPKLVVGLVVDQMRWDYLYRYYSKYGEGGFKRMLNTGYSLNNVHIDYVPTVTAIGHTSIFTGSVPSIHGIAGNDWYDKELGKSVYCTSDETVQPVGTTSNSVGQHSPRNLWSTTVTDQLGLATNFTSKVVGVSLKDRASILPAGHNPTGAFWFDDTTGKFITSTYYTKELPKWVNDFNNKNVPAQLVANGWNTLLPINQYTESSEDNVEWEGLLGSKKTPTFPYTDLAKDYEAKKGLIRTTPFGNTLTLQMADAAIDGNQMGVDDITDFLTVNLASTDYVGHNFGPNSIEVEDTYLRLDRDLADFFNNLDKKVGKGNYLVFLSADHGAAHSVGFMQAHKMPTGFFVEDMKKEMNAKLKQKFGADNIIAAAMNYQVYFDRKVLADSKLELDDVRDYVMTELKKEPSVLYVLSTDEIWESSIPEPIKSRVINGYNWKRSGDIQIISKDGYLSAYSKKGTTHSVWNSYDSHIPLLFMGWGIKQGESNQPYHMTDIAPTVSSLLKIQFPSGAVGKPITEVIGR
| Substitution | oxyanion analog dissociation constant [µM] |
| --- | --- |
| L87V | 2.34 |
| A458G | 2.11 |
| T349V | 1.78 |
| L128G | 2.03 |
| G33V | 2.33 |
| P519G | 2.7 |
| T274G | 1.88 |
| N48G | 2.47 |

Series 2 — target: CCNE1, cyclin fold, Cln2 fusion (human); method: yeast growth competition, sequencing; matrix: yeast; notes: strong parent motif; relative to: not given; direction: higher = stronger binding; starting sequence: viral docking peptide; YKVKRRLVFGADD
| Substitution | normalised enrichment score |
| --- | --- |
| R5E | -0.0538 |
| A11K | 5.26 |
| A11S | 6.15 |
| R5W | 0.979 |
| L7T | -0.141 |
| L7A | -0.0361 |
| R6W | 2.32 |
| R5Y | 0.143 |

Further values, each from its own experiment — relative to: DMSO
| SMILES | tested on | method | strain | tested at | time | measurement | value |
| --- | --- | --- | --- | --- | --- | --- | --- |
| CN[C@@H]1C[C@H]2O[C@@](C)([C@@H]1OC)n1c3ccccc3c3c4c(c5c6ccccc6n2c5c31)C(=O)NC4 | normal-adjacent epithelium patient-derived organoids sample H | CellTiter-Glo | – | 1 µM | – | viability | 0.9% |
| CNC(=O)c1ccc(-c2cnn3ccc(C(=O)N(C)c4ccc(Cl)c(C(=O)OC)c4)cc23)cc1 | Cryptosporidium parvum | time-kill | nanoluciferase-expressing | 81 nM | 8 h | luminescence | 89.6% and 83.1% |

Repeated from above (series 1):
| Substitution | oxyanion analog dissociation constant [µM] |
| --- | --- |
| A458G | 2.11 |
| P519G | 2.7 |
